Measured values of several laboratories.
Protocols differ between the studies behind these lines. Values joined by “and” are separate records of one study, mostly repeats; a detail may differ. ± marks the error that the study gave.
HTR2C: 5-hydroxytryptamine receptor 2C (HTR2C, Homo sapiens, UniProt P28335)
HTR2A: 5-hydroxytryptamine receptor 2A (HTR2A, Homo sapiens, UniProt P28223)
SLC6A6 Y138A: Sodium- and chloride-dependent taurine transporter (SLC6A6, Homo sapiens, UniProt P31641, Y138A)
T1: DNA:RNA riboswitch, DNA extensions (Arabidopsis thaliana); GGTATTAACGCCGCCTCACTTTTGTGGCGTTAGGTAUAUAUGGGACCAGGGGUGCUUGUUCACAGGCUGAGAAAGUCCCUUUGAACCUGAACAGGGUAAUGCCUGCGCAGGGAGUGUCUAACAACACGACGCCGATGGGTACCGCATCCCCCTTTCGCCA

SMILES	target	test	test system	setting	how to read	endpoint	result
CC[C@@H](C)[C@@H](NC(=O)[C@@H](Cc1ccc(O)cc1)NC(=O)[C@H]1CCCN1C(=O)[C@@H](CCCNC(=N)N)NC(=O)[C@H](N)Cc1c[nH]cn1)C(=O)N[C@H](C)C(=O)N[C@H](Cc1c[nH]cn1)C(=O)N[C@H](CCCNC(=N)N)C(=O)N[C@@H](C(=O)N[C@H](Cc1ccc(O)cc1)C(=O)N[C@H](CO)C(=O)N[C@H](Cc1ccccc1)C(N)=O)C(C)C	Transferrin receptor protein 1 (Tfrc, Mus musculus, UniProt Q62351)	flow cytometry	B16	48 h, unit not given	reference: 0 h	surface expression	0.532 and 0.526
N[C@@H](CC(=O)O)C(=O)O	uncharacterized protein (Ixodes scapularis, UniProt A0A0N9E2I2)	L-glutamate-like response, two-electrode voltage clamp	Xenopus laevis oocytes	100 µM		activity	inactive
C[C@H](O)c1cnc(NS(=O)(=O)c2ccc(C(F)(F)F)c(Cl)c2)nc1	17-beta-hydroxysteroid dehydrogenase 13 (Homo sapiens, UniProt Q7Z5P4)	substrate, NADH fluorescence				Vmax	0.21 nM NADH/s/nM enzyme
N#Cc1ccc2c(-c3ccncc3)c(-c3ccc(F)cc3)nn2c1	Protein kinase C-like 1 (Candida albicans, UniProt P43057)	kinase binding, competitor, MIB/MS competition, measured: PKC1	Candida albicans cell lysate	1 µM	reference: DMSO	log2 fold change	-0.0562
CC(C)C[C@H](NC(=O)[C@H](CCCCN)NC(=O)OCc1ccccc1)C(=O)N[C@H](B(O)O)C(C)C	Serine protease HTRA1 (Homo sapiens, UniProt Q92743)	enzyme activity, inhibitor		concentration not given	reference: 1	fold inhibition	6 fold
C=C1CN(S(=O)(=O)c2ccc(C)cc2)CCCN(Cc2ccccc2)CCCN(S(=O)(=O)c2ccc(C)cc2)C1	Protein transport protein Sec61 subunit alpha isoform 1 (Homo sapiens, UniProt P61619)	reporter gene, Dual-Glo luciferase	HEK293 with CD4 signal peptide-FLuc		reference: mock	FLuc/RLuc ratio	1.9
Nc1ncnc2c1ncn2[C@@H]1O[C@H](COP(=O)(O)CP(=O)(O)OP(=O)(O)O)[C@@H](O)[C@H]1O	P2X purinoceptor 1 (P2RX1, Homo sapiens, UniProt P51575, K140A)	calcium influx		316 nM	reference: ionomycin response	calcium influx	72.9% and 68.8% and 70.3% and 98%
O=C1c2ccccc2CCN1CCCCN1CCN(c2ccccn2)CC1	HTR2C	radioligand binding		concentration not given, together with: [3H]mesulergine		inhibition	63%
OC[C@H]1OC(O)[C@H](O)[C@@H](O)[C@@H]1O (some centres unmarked)	Hexokinase-3 (HK3, Homo sapiens, UniProt P52790, D264A/R265A)	substrate inhibition		mutant D264A/R265A, complete substrate inhibition model, together with: ATP 20 mM		kcat	39 ± 19 s⁻¹
CC(=O)N[C@H](C(=O)N1C[C@H](O)C[C@H]1C(=O)NCc1ccc(-c2scnc2C)cc1)C(C)(C)SCCCCCCNC(=O)C[C@@H]1N=C(c2ccc(Cl)cc2)c2c(sc(C)c2C)-n2c(C)nnc21	BRD2/VHL, BD1; with VCB (Homo sapiens, UniProt P25440+P40337, K107A/Q101K/V106E)	ITC		25 °C, BRD2 BD1 KEA mutant, ternary		ΔG	-10 ± 0.2 kcal/mol
COC(=O)CC1CC(c2ccc(O)cc2)=NO1 (centres unmarked)	MIF (Homo sapiens, UniProt P14174)	inhibitor, ELISA		up to 50 µM		binding inhibition	no inhibition
CN1CCN(C(=O)c2cccc(-c3nc(N)nc(-c4ccccc4O)n3)c2)CC1	human adenosine A2A receptor I66A	biophysical mapping		concentration not given	reference: wild type	pKD change	0.1
O=c1nc(SCc2cc(F)cc(C(F)(F)F)c2)nc(SCc2ccc3sccc3c2)[nH]1	TOP2A (Homo sapiens, UniProt P11388)	DNA cleavage		15.6 µM, replicate 1		linear DNA	0%
C[C@H]1O[C@H](O[C@H]2[C@H](O)[C@@H](O)[C@@H](O[C@H]3[C@H](O)[C@@H](O)C(O)O[C@@H]3CO)O[C@@H]2CO)[C@H](O)[C@@H](O)[C@@H]1N[C@H]1C=C(CO)[C@@H](O)[C@H](O)[C@H]1O (some centres unmarked)	Glycoside hydrolase family 13 protein (Bacteroides ovatus, UniProt A0ABU3INP3)	uncompetitive inhibitor		pH 7.0, together with: pNP-G6 substrate		Ki	123 ± 9.2 nM
CC1CCCN(C(=O)c2cc3ncccn3n2)C1 (centres unmarked)	WD repeat-containing protein 55 (WDR55, Homo sapiens, UniProt Q9H6Y2)	binding, affinity selection mass spectrometry			reference: other proteins in batch	log fold enrichment	-0.161
COc1ccccc1N1CCN(CCCCN2CCc3ccccc3C2=O)CC1	HTR2C	radioligand binding		concentration not given, together with: [3H]mesulergine		inhibition	77.2%
CC[C@@H]1[C@H](F)C(=O)N[C@@H]1COc1nccc2cc(C(N)=O)c(OC)cc12	CAMK2B (Homo sapiens, UniProt Q13554)	ATP-site probe binding, ActivX profiling	THP-1 cell lysate	0.2 mM, Lys1 site		inhibition	4.9%
Cc1cccc(N2CC(C(=O)O)CC2=O)c1 (centres unmarked)	STUB1 (Homo sapiens, UniProt Q9UNE7)	binding, affinity selection mass spectrometry			reference: other proteins in batch	fold enrichment	0.831
CCCCCCCC/C=C\CCCCCCCC(=O)NCCc1ccc(O)c(O)c1	Trpv1 (Mus musculus, UniProt Q704Y3, S513A)	ion current, agonist, whole-cell patch clamp				Hill coefficient	1.76 ± 0.6
Cc1ccc(C(=O)Nc2ccc3ccccc3c2)o1	Otop1 (Mus musculus, UniProt Q80VM9)	proton current, whole-cell patch clamp	cells expressing mouse Otop1	1 µM, pH 6.0		peak current ratio Ip2/Ip1	1.11 and 1.1 and 1.03 and 1.18 and 1.16 and 0.99 and 1.19
CC(=O)NCCc1c[nH]c2ccc(O)cc12	SULT1C4 (Homo sapiens, UniProt O75897)	sulfation, substrate		10 µM, pH 7.0, substrate 1		Vmax	32.4 ± 4.63 nmol/min/mg
COC1=C(OC)C(=O)C(CC=C(C)C)=C(C)C1=O	FSP1, ancestral	substrate		co-substrate fixed		Km	2.15 ± 0.36 µM
Nc1ccn([C@H]2C[C@H](O)[C@@H](COP(=O)(O)OP(=O)(O)OP(=O)(O)O)O2)c(=O)n1	Gag-Pol polyprotein, reverse transcriptase (gag-pol, Human immunodeficiency virus type 1 group M subtype B, UniProt P04585)	nucleotide incorporation, substrate	HIV-1	together with: RNA template		Km	0.013 µM
O=C(O)c1ccc(Nc2ncc3c(n2)-c2ccc(Cl)cc2C(c2c(F)cccc2F)=NC3)cc1	human IKKα(h)	kinase activity		1 µM		remaining activity	114%

SMILES	target	test	test system	setting	how to read	endpoint	result
CC(Oc1ccccc1)C(=O)NCc1ccccn1 (centres unmarked)	RFWD3 (Homo sapiens, UniProt Q6PCD5)	binding, affinity selection mass spectrometry			reference: other proteins in batch	log fold enrichment	-0.126
CN(C)C(=O)C(CCN1CCC(O)(c2ccc(Cl)cc2)CC1)(c1ccccc1)c1ccccc1	Calcium-activated potassium channel subunit alpha-1, with LRRC26 γ1 subunit (KCNMA1, Homo sapiens, UniProt Q12791)	BK current, inhibitor, inside-out patch clamp	excised membrane patch	3 µM, γ1 subunit coexpressed, together with: nominally 0 Ca2+ cytosolic	reference: without loperamide	normalized Gmax	0.443
CC(C)(N)C(=O)N[C@H](COCc1ccccc1)C(=O)N1CCC2(CC1)CN(S(C)(=O)=O)c1ccccc12	GHSR (Homo sapiens, UniProt Q92847)	calcium mobilization	HEK293, stably transfected			Hill slope	1
C[S+](CC[C@H](N)C(=O)[O-])C[C@H]1O[C@@H](n2cnc3c(N)ncnc32)[C@H](O)[C@@H]1O (some centres unmarked)	KMT2C (Homo sapiens, UniProt Q8NEZ4)	substrate, enzyme-coupled methylation		together with: H3 peptide 800 µM		apparent Vmax	4 ± 0.2 µM/min
Cc1ncc(C[n+]2csc(CCOP(=O)(O)OP(=O)(O)O)c2C)c(N)n1	T1, DNA:RNA riboswitch, DNA extensions (Arabidopsis thaliana)	optical tweezers		direct		binding	binds
CCCCCC(O)C(CC=O)SC[C@H](NC(C)=O)C(=O)O (some centres unmarked)	N-acyl-aromatic-L-amino acid amidohydrolase (carboxylate-forming) (Acy3, Mus musculus, UniProt Q91XE4)	substrate, fluorescamine		without Co2+		kcat	0.27 s⁻¹
CC1(C)CC2(C)OC(=O)NC2(C)c2ccccc21 (centres unmarked)	Baculoviral IAP repeat-containing protein 3, BIR1 domain (BIRC3, Homo sapiens, UniProt Q13489)	binding, affinity selection mass spectrometry			reference: other proteins in batch	log fold enrichment	-0.0374
Clc1cccc(OC[C@H]2CN(CCN3CCc4ccccc43)CCO2)c1	HTR2A	radioligand binding		concentration not given, together with: [3H]ketanserin		inhibition	60.8%
CCc1cnn2c(NCc3ccc[n+]([O-])c3)cc(N3CCCC[C@H]3CCO)nc12	BRD4 (Homo sapiens, UniProt O60885)	19F NMR, measured: tyrosine 65		94 µM	reference: free protein	chemical shift change	0.059 ppm
Cc1cc(Cl)cc(C)c1OCC(=O)NC(C)C	SLC6A19 (Homo sapiens, UniProt Q695T7)	membrane potential, FLIPR membrane potential	CHO-BC cells	concentration not given, first screen	reference: uninhibited control	normalised transport activity	0.934 and 0.84 and 0.91 and 0.921
Nc1ncnc2c1ncn2[C@@H]1O[C@H](COP(=O)(O)OP(=O)(O)OP(=O)(O)O)[C@@H](O)[C@H]1O	P2X purinoceptor 7 (P2rx7, Rattus norvegicus, UniProt Q64663, Q143A)	ion current, agonist, two-electrode voltage clamp	Xenopus laevis oocytes	500 µM	reference: highest concentration response	normalized current	0.961 and 0.981 and 0.929
O=C(COP(=O)(O)O)[C@@H](O)[C@H](O)[C@H](O)COP(=O)(O)O	Peroxisomal bifunctional enzyme (EHHADH, Homo sapiens, UniProt Q08426)	thermal proteome profiling, measured: EHHADH	HepG2 cell lysate	concentration not given, 57 over 37 °C, mean	reference: compound over control	thermal stability ratio	0.59
Nc1nc2c(ncn2[C@@H]2O[C@H](COP(=O)(O)O)[C@@H](O)[C@H]2O)c(=O)[nH]1	GUK1 (Homo sapiens, UniProt Q16774, R44A)	binding, ITC		together with: GMP		-TΔS	2.86 kcal/mol
NCCCS(=O)(=O)O	SLC6A6 Y138A	binding, microscale thermophoresis		62.5 µM, room temperature, together with: 50 nM labelled protein	higher = more binding	normalised MST signal	0.246
Nc1ccc2cc3ccc(N)cc3nc2c1	Chymotrypsinogen A, activated (alpha-chymotrypsin) (Bos taurus, UniProt P00766)	isothermal titration calorimetry		concentration not given, 25 °C, together with: 0.5 M sarcosine		entropic contribution TΔS° of binding	-20.2 ± 1.43 kcal/mol
Nc1ncnc2c1ncn2[C@@H]1O[C@H](CO[P@](=O)(O)O[P@](=O)(O)O[P@@](=O)(O)S)[C@@H](O)[C@H]1O	GUK1 (Homo sapiens, UniProt Q16774)	binding, isothermal titration calorimetry		molar ratio 0.09853, fitted curve		ΔH	-1.98 kcal/mol
O=C1CC[C@@H](C(=O)O)O1	Uncharacterized protein (Pelagibacter ubique, UniProt Q4FKX4)	differential scanning fluorimetry	Candidatus Pelagibacter ubique	in-house screen		thermal shift	5.53 °C
COc1cc(O)c2c(c1)oc(=O)c1c3cc(O)c(O)cc3oc21	MAL12 (Saccharomyces cerevisiae S288c, UniProt P53341)	fluorescence quenching		310 K		ΔH	-25 kcal/mol
O=c1nc(SCc2cc(F)cc(C(F)(F)F)c2)nc(SCc2csc3ccc(Cl)cc23)[nH]1	TOP2B (Homo sapiens, UniProt Q02880)	decatenation		15.6 µM, replicate 1		decatenated DNA	4.3%
Clc1cncc(OC[C@H]2CN(CCN3CCc4ccccc43)CCO2)c1	HTR2A	radioligand binding		concentration not given, together with: [3H]ketanserin		inhibition	37.8%
CCOC(=O)C1=C(O)C(=O)N(Cc2ccccc2)C1	TDP1 (Homo sapiens, UniProt Q9NUW8)	binding, small molecule microarray		together with: AF647-labelled TDP1 1 µM	direction not given	Z score	3.14
NCCCCC(=O)O	SLC6A6 Y138A	binding, microscale thermophoresis		3.91 µM, room temperature, together with: 50 nM labelled protein	higher = more binding	normalised MST signal	-0.0387
CCc1oc2c([C@H](CO)N(CC)CC)cccc2c1C	LPAR1 (Homo sapiens, UniProt Q92633, W271F)	Gi activation, agonist, NanoBiT G-protein dissociation	HEK293T	W271F mutant, unit not given	reference: wild type	change in Emax	0.926

For quick reference, copied from above:
SMILES	target	test	test system	setting	how to read	endpoint	result
CCCCCC(O)C(CC=O)SC[C@H](NC(C)=O)C(=O)O (some centres unmarked)	N-acyl-aromatic-L-amino acid amidohydrolase (carboxylate-forming) (Acy3, Mus musculus, UniProt Q91XE4)	substrate, fluorescamine		without Co2+		kcat	0.27 s⁻¹
Nc1ncnc2c1ncn2[C@@H]1O[C@H](CO[P@](=O)(O)O[P@](=O)(O)O[P@@](=O)(O)S)[C@@H](O)[C@H]1O	GUK1 (Homo sapiens, UniProt Q16774)	binding, isothermal titration calorimetry		molar ratio 0.09853, fitted curve		ΔH	-1.98 kcal/mol
C[S+](CC[C@H](N)C(=O)[O-])C[C@H]1O[C@@H](n2cnc3c(N)ncnc32)[C@H](O)[C@@H]1O (some centres unmarked)	KMT2C (Homo sapiens, UniProt Q8NEZ4)	substrate, enzyme-coupled methylation		together with: H3 peptide 800 µM		apparent Vmax	4 ± 0.2 µM/min
Cc1ccc(C(=O)Nc2ccc3ccccc3c2)o1	Otop1 (Mus musculus, UniProt Q80VM9)	proton current, whole-cell patch clamp	cells expressing mouse Otop1	1 µM, pH 6.0		peak current ratio Ip2/Ip1	1.11 and 1.1 and 1.03 and 1.18 and 1.16 and 0.99 and 1.19
